Experimental data gathered from unrelated publications.
Every numbered part comes from another study and shows a few of its results, in no order.

Series 1 — technique: universal PBM; form: double-stranded DNA, one strand shown; medium: in vitro; tested at: 600 nM; direction: higher = stronger binding
Target: Sal-like protein 4, full length isoform A (SALL4, Homo sapiens, UniProt Q9UJQ4, residues 1-1053)
UniProt Q9UJQ4, sequence (whole entry, looked up): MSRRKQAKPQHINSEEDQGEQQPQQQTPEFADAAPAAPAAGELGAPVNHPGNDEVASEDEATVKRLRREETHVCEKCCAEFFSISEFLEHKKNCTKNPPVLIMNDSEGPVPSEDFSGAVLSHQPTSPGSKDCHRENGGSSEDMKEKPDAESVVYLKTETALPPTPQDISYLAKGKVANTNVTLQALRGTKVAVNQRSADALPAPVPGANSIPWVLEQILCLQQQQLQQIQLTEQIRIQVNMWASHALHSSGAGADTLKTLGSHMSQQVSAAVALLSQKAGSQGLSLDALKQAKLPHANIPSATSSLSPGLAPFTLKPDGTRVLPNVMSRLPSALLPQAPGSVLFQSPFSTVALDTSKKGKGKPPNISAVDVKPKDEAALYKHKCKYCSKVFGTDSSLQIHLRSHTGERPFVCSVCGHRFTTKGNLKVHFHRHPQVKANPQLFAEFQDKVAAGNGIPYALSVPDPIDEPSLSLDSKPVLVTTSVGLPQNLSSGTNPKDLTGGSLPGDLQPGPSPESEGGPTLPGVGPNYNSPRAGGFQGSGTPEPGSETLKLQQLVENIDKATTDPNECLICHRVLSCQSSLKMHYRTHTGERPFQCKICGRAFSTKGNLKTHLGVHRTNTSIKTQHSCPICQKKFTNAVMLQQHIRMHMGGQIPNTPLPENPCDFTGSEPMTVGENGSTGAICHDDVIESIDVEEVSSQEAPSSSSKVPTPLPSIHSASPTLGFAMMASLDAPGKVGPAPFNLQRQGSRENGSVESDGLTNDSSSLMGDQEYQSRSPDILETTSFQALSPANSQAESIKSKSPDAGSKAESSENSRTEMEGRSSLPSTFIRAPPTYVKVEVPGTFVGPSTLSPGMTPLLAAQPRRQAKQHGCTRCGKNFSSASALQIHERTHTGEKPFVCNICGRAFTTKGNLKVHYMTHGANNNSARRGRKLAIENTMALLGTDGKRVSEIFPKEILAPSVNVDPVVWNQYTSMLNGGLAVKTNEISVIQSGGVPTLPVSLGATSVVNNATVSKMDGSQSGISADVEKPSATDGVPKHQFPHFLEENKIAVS
Notes: 8-mer, flanks averaged, mean of replicates
The E-score of `GTAGGAAC` is reported as 0.067.
With `AGCCATAG` the E-score was -0.125.
For `GAGTAGAC`, the E-score was -0.131.
`GCGGCAGC` has an E-score of -0.301.
For `GCGCTCAA`, the E-score was -0.165.
With `TAATAACA` the E-score was 0.395.
With `ACGTTTCT` the E-score was 0.0614.
`CGAGGGCG` has an E-score of -0.242.

Series 2 — technique: competition protein-binding microarray; form: double-stranded DNA, one strand shown; medium: in vitro; tested at: 2 µM; together with: Cbf1 competitor, 0.05 µM; direction: higher = stronger binding
Target: Phosphate system positive regulatory protein PHO4, full length, GST-tagged (PHO4, Saccharomyces cerevisiae, UniProt P07270, residues 1-312)
Notes: whole 60-bp probe, lowest competitor level
Target sequence (chain): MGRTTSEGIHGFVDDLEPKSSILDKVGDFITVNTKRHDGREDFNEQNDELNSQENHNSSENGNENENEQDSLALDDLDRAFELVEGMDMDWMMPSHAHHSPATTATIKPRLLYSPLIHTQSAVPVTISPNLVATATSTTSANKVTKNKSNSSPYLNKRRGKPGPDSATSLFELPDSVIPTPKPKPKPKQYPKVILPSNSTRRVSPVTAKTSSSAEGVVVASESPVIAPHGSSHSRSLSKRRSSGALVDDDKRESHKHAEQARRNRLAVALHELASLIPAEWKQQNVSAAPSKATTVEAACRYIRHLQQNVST
For `GTAAAACTTTATTAGCTCGTGCTTTCGCGGCTCAGAGTCTTGATTCGCTTGACGCTGCTG`, the fluorescence intensity was 10700 a.u.
`CCAAGGGATTACCATCACGTAAGACTCTTGATCCTTGTCTTGATTCGCTTGACGCTGCTG` has a fluorescence intensity of 3260 a.u.
With `TTGAATGAGCAATCGCACGATGTCCCAATGGCACTCGTCTTGATTCGCTTGACGCTGCTG` the fluorescence intensity was 9850 a.u.

Series 3 — technique: protein-binding microarray; form: double-stranded DNA, one strand shown; medium: in vitro; tested at: 940 nM top; notes: 60-bp whole probe; together with: salmon DNA 0.4 mg/ml; baseline: random background probes; direction: higher = stronger binding; constant ends, left off below: GCCTAGCAC … GTCTTGATTCGCTTGACGCTGCTG
Target: Interferon regulatory factor 5, full length, phosphomimetic (IRF5, Homo sapiens, UniProt Q13568-2, residues 1-514, S451D/S453D/S456D/S462D)
For `TCATTATTAGTGACTCAGACTGTGCTA`, “fitted relative affinity” read 0.0925 z-score.
`TGTTTTTGCTTTCTTTATGCGTGCTAG` — result for “fitted relative affinity”: 2.23 z-score.
`TTAGGACTGGACACTGGGCTAGTGCTA` — result for “fitted relative affinity”: -0.456 z-score.
`GACGGTCTCGGTATCGGAACGTGCTAG` — result for “fitted relative affinity”: 4.92 z-score.
Under “fitted relative affinity”, `GCAACACTCACCATGGCTAGGTGCTAG` is recorded as -0.102 z-score.
For `GACGATATCAGCCTGGAGACGTGCTAG`, “fitted relative affinity” read -0.28 z-score.

Further values, each from its own experiment
`PhoQ, residues 284 288 289 292 302 303 GASLAW` gave a fold induction of 0.562 (PhoP, residues 12 14 15 18 19 STWGI (Escherichia coli, UniProt P23836); Sort-seq, measured: YFP reporter; E. coli; PhoQ-PhoP variant library, together with: 10 µM Mg2+; baseline: high Mg2+ state, higher = stronger signaling).

A few entries again (series 3):
Under “fitted relative affinity”, `GCAACACTCACCATGGCTAGGTGCTAG` is recorded as -0.102 z-score.
